# Results from different studies.
# Each numbered part is a random draw from the data of one study; scales do not carry over between parts. Substitutions count along the parent as printed.

# Study 1
# Target: CREBRF, bZIP domain (human)
# Method: DHFR protein complementation
# Medium: yeast
# Notes: single substitutions, most at no-binding floor
# Relative to: wild-type JUN-FOS pair
# Direction: higher = stronger binding
# Parent: JUN, bZIP domain (human); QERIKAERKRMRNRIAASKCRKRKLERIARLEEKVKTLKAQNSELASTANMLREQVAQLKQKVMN; partner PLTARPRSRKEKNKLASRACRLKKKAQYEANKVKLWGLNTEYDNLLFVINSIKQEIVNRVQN
Change,binding fitness [natural log]
I28F,-1.4
E44W,-1.31
A49E,-1.49
V35G,-1.5
Q55A,-1.5
E33C,-1.51
Q41A,-1.42
S47Y,-1.27
K36D,-1.67
T48A,-1.53
I28H,-1.42
K39S,-1.5
I28W,-1.27
M51T,-1.39
E32L,-1.4
I28S,-1.5

# Study 2
# Target: CCND1, cyclin fold, Cln2 fusion (human)
# Method: yeast growth competition, sequencing
# Medium: yeast
# Notes: weak parent motif
# Relative to: not given
# Direction: higher = stronger binding
# Parent: DOT1L docking peptide (human); SEAKRRIVFTITT; partner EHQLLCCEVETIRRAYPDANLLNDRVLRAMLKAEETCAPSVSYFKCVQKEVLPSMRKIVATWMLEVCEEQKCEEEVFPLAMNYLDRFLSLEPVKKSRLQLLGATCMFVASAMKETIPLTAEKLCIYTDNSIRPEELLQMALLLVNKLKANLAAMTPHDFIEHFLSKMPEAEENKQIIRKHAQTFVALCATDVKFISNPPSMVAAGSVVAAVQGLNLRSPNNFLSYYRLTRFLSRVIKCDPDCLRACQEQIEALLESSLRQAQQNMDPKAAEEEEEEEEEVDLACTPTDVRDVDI
Change,normalised enrichment score
T10A,0.155
V8A,0.324
F9A,0.00427
E2A,0.49
K4A,0.24
R6A,0.404

# Study 3
# Target: ABI1, truncated, D143A, DHFR fusion (Arabidopsis thaliana)
# Method: DHFR PCA, deep sequencing
# Medium: yeast
# Notes: methotrexate growth selection, single substitutions
# Added: (+)-ABA 1.4 µM
# Relative to: wild-type fitted maximum
# Direction: higher = stronger binding
# Parent: PYL1, truncated, DHFR fusion (Arabidopsis thaliana); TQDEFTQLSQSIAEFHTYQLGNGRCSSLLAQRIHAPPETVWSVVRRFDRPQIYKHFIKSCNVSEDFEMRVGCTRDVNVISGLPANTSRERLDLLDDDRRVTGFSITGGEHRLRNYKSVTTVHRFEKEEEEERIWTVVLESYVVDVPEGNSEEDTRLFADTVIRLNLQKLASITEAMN
Change,relative binding score [%]
D75R,44.2
S11Y,46.6
S117I,-4.57
V70D,0.653
E139I,5.29
L93I,89.1
D96E,60.5
V70F,-3.27
C25D,-9.49
F56Q,-6.29
A84T,11.9
G148C,9.59
H34V,28.7

# Study 4
# Target: RNA binding protein fox-1 homolog 2, RRM domain, GST-SBP tag (RBFOX2, Homo sapiens, UniProt O43251-10, residues 100-194)
# Method: RNA Bind-n-Seq
# Form: RNA
# Medium: in vitro
# Concentration: 365 nM
# Notes: natural RNA segment, single round, ends assumed
# Relative to: no-protein control
# Direction: higher = stronger binding
# Shared flanks, not repeated: GGGAGUUCUACAGUCCGACGAUC … UGGAAUUCUCGGGUGCCAA
# Target sequence (chain): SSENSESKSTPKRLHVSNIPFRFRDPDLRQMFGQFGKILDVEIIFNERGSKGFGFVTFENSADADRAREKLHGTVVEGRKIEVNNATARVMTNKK
Sequence,RBNS enrichment (R)
GUCAAAGACAAGGAAGACCAAACCACACACUGUAAAAGUCCACUGCUCUGUAGUUUAUGCCAAGACCACAAUGACUCUUUACCCCAAGAAAGUCUCUUGACUUAAGUUCU,0.574
AGGUAUAUUAGAGCCACUUGAAAGCAUGAAGACCAGUUAUAUGGAAACAGGUUUCUCUCAGUGGCACAUUUUGCUUUUUCUUAGCCCUCAAAUACAUUGCCUCGGCAUGA,0.811
AAUGUUACUGCCAGUCAUAAGUGGCUUUUUAAUUACCAGUUUUCAUUGCACUUCACUCUGUUUUCAGGGGGAUUGGGGACAUUCGGGGAGACUGUAUCUGUCUACUUUGU,0.365
CGCUGCGUGCCAUCACUCAACCAUAACACUUGAUGCCGUUUCUUUCAAUAUUUAUUUCCAGAGUCCGGAGGCAGCAGACACGCCCUCUUAGUAGGGACUUAAUGGGCCGG,0.282
CCCAUCAAUUGAACUGUUUCUGGGCUCAGUCAGACACAGACAUUCAUCUGUGUCUGACCAAAUCAGGGGACUUCCCCACCUGUGGUGGGAGGCACAGCUUAGAUGUUUUG,0.274
AGAUGAAAUCUGUUCUGGGAAUGUUUCAGCAGCCAAUAAGUGCCCGAGCACACUGCCCCCGGUUGCCUGCCUGGGCCCCAUGUGGAAGGCAGAUGCCUGCUCGCUCUGUC,0.331
ACUCUUGUUCCUAACGACAACGUGGCUAUGUGCAAUGGAGACAAACUGGACUGUGAGUCUCUUGGUUCAGUAUUAGGUUCACUUUAUUUAUACUGUAAGUUAUUUUACUU,0.698
UGUUUGCCUUCGCAGCACCCAGCAUCCAAGGACGGACUUCAGGGGACACGUGUAGUGUGUUAAGAUGUGCUGAUGGAAACACUAUCUUCAAAACUAAAAAUCAGCCACAG,0.408

# Study 5
# Target: Max dimerization protein 1, bHLH-zipper, MAX partner unstated (MXD1, Homo sapiens, UniProt Q05195, residues 56-136)
# Method: protein-binding microarray
# Form: double-stranded DNA, one strand shown
# Medium: in vitro
# Concentration: not given
# Notes: k-mer, scored over probes, only values ≥0.25
# Direction: higher = stronger binding
# Residues (chain): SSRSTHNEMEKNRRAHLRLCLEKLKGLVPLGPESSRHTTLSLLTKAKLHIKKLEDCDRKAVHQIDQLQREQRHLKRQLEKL
Sequence,E-score
AAGGGGGC,0.293
ACACACGC,0.408
CAACACGA,0.282
CATGCCTA,0.371
AAACGTGC,0.398
GTCACGCA,0.297
AGGGGTGG,0.263
CGTGGGAA,0.352
ACGTGATG,0.356
AACGAGGA,0.273
CAGCGTGG,0.389
CCCGCCCC,0.392
CCACGCTA,0.334
GTGTGCTA,0.258
CAACATGG,0.342
GCATGTAC,0.308
CGTGTGCA,0.407
CGTGTCAG,0.281
CGTGTAAG,0.272
ACACCGTG,0.264
ATGTGTCA,0.288
AGTCCACG,0.318
CGCCCGCC,0.285
ATAACGTG,0.383
ACTGCATG,0.263

# Further values, each from its own experiment
Substance,target,test,system,conditions,scale,quantity,result
"PhoQ, residues 284 288 289 292 302 303 TNASYF","PhoP, residues 12 14 15 18 19 LHSVW (Escherichia coli, UniProt P23836)","Sort-seq, item: YFP reporter",E. coli,"PhoQ-PhoP variant library, added: 10 µM Mg2+","relative to: high Mg2+ state, higher = stronger signaling",fold induction,4.29

# Repeated from above (study 1):
Change,binding fitness [natural log]
E44W,-1.31
M51T,-1.39
I28H,-1.42
E32L,-1.4
I28W,-1.27
K39S,-1.5
Q55A,-1.5
S47Y,-1.27
T48A,-1.53
E33C,-1.51
